# Measured values from different studies.
# Protocols differ between the studies behind these lines.
# BCHE: Cholinesterase (BCHE, Equus caballus, UniProt P81908)
# Chain of UniProt P81908 (whole entry, looked up): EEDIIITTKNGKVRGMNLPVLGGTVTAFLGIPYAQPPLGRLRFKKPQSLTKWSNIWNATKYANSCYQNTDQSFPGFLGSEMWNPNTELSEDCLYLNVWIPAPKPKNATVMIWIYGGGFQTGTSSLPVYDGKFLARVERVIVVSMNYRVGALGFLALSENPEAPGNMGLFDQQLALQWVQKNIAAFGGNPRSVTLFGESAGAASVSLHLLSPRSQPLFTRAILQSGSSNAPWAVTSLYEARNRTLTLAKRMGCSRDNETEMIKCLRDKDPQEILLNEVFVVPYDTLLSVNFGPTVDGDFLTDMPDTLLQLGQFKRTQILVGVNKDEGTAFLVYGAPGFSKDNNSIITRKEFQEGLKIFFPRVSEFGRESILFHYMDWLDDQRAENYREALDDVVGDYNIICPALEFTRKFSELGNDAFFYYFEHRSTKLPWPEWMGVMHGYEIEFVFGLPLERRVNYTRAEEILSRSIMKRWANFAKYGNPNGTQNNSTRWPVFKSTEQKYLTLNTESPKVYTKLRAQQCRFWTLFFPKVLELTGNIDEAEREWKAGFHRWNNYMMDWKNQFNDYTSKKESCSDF
# Chain of UniProt Q00535 (whole entry, looked up): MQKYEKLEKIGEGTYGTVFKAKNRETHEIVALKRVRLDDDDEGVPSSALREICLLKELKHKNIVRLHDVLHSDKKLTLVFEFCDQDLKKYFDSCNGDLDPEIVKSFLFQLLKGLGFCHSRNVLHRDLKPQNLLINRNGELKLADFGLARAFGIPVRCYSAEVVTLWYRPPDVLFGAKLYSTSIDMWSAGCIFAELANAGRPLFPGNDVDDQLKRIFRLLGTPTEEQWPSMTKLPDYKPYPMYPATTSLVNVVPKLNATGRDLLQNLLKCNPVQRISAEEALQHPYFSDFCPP
# Chain of UniProt O43283 (whole entry, looked up): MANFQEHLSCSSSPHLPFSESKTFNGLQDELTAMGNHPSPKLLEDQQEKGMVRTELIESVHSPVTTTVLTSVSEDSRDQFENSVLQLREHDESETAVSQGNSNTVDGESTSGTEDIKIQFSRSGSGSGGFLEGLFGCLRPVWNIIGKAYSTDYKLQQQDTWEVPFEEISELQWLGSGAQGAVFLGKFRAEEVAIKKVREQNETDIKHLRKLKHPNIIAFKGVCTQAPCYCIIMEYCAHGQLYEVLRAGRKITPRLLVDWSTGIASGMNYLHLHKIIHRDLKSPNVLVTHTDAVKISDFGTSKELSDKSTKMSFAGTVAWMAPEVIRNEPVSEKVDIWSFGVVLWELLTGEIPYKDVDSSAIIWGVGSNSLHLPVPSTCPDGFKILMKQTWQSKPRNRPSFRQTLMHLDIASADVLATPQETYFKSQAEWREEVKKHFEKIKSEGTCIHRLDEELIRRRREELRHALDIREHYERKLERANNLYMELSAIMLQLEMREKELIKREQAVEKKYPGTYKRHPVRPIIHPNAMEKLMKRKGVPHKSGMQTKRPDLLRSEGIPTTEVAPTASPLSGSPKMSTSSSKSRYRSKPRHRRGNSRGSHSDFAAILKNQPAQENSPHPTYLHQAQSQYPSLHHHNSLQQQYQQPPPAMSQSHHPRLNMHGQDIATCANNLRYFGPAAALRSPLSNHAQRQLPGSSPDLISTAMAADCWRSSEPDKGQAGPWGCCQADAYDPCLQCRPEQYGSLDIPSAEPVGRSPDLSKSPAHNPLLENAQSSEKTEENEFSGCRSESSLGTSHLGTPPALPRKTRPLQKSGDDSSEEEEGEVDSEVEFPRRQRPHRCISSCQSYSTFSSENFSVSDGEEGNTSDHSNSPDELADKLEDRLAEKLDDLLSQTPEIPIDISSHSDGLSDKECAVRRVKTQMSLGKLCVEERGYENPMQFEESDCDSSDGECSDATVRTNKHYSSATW
# Chain of UniProt Q8N4C8 (whole entry, looked up): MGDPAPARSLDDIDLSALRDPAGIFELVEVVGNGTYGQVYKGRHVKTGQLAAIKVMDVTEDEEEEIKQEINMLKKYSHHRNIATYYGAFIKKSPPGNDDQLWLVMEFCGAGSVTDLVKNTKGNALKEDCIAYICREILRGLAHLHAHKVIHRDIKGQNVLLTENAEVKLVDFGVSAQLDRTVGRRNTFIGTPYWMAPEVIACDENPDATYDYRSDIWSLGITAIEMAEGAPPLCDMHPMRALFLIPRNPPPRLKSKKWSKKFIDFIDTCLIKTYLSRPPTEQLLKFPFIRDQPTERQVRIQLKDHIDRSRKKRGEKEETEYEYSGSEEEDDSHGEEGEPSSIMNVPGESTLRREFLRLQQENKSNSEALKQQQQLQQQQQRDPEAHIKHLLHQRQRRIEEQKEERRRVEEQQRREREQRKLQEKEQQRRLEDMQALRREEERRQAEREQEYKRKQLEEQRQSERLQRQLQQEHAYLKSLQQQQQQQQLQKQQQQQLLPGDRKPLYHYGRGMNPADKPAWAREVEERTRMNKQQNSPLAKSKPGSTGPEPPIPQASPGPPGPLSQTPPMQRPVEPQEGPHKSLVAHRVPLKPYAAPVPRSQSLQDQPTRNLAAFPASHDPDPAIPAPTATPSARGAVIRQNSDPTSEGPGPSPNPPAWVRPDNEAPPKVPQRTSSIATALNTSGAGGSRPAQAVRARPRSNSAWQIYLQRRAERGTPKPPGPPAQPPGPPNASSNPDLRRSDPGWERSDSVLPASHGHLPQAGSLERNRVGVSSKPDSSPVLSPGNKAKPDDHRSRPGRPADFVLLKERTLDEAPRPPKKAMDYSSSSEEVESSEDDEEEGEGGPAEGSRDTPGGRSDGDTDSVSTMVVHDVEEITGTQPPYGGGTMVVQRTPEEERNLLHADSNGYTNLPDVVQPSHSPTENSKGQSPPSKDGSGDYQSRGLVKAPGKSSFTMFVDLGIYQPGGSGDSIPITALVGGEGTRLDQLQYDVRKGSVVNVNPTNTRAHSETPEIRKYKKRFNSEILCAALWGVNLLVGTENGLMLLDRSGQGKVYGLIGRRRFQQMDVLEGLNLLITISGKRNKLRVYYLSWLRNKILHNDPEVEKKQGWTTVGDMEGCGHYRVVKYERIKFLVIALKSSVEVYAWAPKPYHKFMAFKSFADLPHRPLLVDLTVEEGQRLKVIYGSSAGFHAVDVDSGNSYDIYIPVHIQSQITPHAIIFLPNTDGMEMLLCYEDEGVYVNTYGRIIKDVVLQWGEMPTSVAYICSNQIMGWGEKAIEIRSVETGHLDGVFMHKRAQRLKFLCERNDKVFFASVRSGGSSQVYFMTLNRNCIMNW
# Chain of UniProt P97823 (whole entry, looked up): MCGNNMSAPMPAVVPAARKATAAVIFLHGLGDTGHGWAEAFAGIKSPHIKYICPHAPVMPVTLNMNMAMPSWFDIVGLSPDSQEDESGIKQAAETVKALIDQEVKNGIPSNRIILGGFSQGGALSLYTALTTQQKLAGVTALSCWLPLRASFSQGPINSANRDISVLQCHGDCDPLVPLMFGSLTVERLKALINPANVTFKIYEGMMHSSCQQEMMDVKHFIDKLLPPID
# Chain of UniProt P45974 (whole entry, looked up): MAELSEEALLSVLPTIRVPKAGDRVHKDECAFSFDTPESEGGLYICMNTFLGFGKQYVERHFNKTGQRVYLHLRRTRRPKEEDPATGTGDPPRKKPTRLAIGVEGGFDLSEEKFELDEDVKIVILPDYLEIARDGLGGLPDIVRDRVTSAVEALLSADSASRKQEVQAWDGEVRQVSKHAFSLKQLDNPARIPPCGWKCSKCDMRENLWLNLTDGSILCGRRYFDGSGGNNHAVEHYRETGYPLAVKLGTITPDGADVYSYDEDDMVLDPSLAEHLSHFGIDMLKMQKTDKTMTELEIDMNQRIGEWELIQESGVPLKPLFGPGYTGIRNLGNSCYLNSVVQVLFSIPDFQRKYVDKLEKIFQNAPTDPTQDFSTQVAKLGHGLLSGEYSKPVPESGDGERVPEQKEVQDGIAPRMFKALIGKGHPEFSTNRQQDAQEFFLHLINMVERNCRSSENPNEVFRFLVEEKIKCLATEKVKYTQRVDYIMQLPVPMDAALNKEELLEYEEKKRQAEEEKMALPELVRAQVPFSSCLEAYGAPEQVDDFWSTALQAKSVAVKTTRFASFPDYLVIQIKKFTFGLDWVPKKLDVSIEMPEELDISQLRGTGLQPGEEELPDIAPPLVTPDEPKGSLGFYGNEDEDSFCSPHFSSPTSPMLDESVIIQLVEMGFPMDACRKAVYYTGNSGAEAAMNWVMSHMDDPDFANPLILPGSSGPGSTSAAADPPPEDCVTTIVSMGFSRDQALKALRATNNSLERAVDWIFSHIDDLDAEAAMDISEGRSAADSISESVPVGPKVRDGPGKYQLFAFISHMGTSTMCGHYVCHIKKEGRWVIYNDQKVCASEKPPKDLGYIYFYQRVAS
# Chain of UniProt P28336 (whole entry, looked up): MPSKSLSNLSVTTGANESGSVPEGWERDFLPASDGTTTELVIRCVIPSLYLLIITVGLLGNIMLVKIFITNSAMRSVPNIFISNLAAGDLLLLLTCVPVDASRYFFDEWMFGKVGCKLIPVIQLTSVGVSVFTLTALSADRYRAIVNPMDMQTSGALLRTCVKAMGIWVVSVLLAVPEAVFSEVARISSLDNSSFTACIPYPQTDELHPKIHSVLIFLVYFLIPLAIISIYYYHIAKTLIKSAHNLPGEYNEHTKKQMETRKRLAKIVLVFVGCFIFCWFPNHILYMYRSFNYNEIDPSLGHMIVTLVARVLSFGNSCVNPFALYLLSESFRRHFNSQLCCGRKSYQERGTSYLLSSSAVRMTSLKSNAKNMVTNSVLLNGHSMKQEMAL
# Chain of UniProt P15735 (whole entry, looked up): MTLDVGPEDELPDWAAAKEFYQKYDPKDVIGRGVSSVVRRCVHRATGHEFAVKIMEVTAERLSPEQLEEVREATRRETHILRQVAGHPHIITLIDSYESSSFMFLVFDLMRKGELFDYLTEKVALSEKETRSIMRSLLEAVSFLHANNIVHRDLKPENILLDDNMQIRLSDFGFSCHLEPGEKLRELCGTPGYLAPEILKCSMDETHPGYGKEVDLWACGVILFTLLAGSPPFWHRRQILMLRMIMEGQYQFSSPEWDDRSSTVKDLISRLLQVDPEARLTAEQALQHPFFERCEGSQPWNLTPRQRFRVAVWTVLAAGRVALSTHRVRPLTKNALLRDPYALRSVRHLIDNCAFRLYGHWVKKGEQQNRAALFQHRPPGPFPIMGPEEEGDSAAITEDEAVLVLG
SMILES,target,test,system,setting,inhibition
CC(=O)NC[C@@H]1[C@@H](O)C[C@H]2[C@H](O)C[C@@H](CO)N12,Spodoptera litura β-N-acetylglucosaminidase,,crude enzyme,"1.71 µM, run 2, added: p-nitrophenyl GlcNAc",81.4%
COc1ccc(F)cc1S(=O)(=O)Nc1cnc2c(c1)C(=O)NCCO2,"Metabotropic glutamate receptor 5 (GRM5, Homo sapiens, UniProt P41594)","ligand displacement, radioligand",,10 µM,0%
CN1CCNCC1,BCHE,"enzyme activity, inhibitor, Ellman",,20 µM,45.7%
CN[C@@H]1[C@H](O)[C@H](NC)[C@H]2O[C@]3(O)[C@H](O[C@@H]2[C@H]1O)O[C@H](C)C[C@H]3NC(=O)Cc1cc(Cl)ccn1,"D(4) dopamine receptor (DRD4, Homo sapiens, UniProt P21917, del265-296)","ligand displacement, radioligand",,10 µM,3%
CCCCCCCCCCCCCCCCCC(=O)NC[C@H]1CC[C@H](C(=O)N[C@@H](CCC(=O)NCCCOCCOCCOCCCNC(=O)COCC(=O)N[C@@H](Cc2ccc(O)cc2)C(=O)NC(C)(Cc2ccccc2)C(=O)N[C@@H](CC(C)C)C(=O)N[C@@H](CCCC)C(=O)N[C@@H](CCCNC(=N)N)C(=O)N2CCC[C@H]2C(=O)N[C@@H](CCCNC(=N)NC)C(=O)N[C@@H](CC(N)=O)C(N)=O)C(=O)O)CC1 (stereo partly shown),"Neuromedin-B receptor (NMBR, Homo sapiens, UniProt P28336)","antagonist, DiscoverX GPCR panel",,1 µM,53%
CN(C)[C@H]1C[C@@]23CC[C@@]4(O2)C(=CC[C@]2(C)[C@@H](c5ccc6ccncc6c5)CC[C@H]24)C=C3[C@@H](O)[C@@H]1O,"Cyclin-dependent kinase 5 (CDK5, Homo sapiens, UniProt Q00535)","ATP probe labelling, inhibitor, KiNativ profiling",,1 µM,6.7%
C[C@H](NCc1ccc(-c2ccc(C(F)(F)F)cc2)cc1)C(N)=O,"Alpha-2B adrenergic receptor (ADRA2B, Homo sapiens, UniProt P18089)","radioligand binding, SafetyScreen panel",,"1 µM, species human, added: 2.50 nM [3H]Rauwolscine",-3%
CC(C)[C@H]1NC(=O)C[C@H]2/C=C/CCSSC[C@@H](NC1=O)C(=O)N[C@H](Cc1cccc3ccccc13)C(=O)NCC(=O)O2,"Phosphorylase b kinase gamma catalytic chain, liver/testis isoform (PHKG2, Homo sapiens, UniProt P15735)","enzyme activity, inhibitor",,10 µM,1%
O=C(N1CCCCC1)n1ccnn1,"Acyl-protein thioesterase 1 (Lypla1, Mus musculus, UniProt P97823)","serine hydrolase activity, inhibitor, competitive gel-based ABPP",mouse T-cell proteome,"1 µM, 30 min, 37 °C",< 50%
Cn1c(=O)[nH]c2nncnc2c1=O,"Ubiquitin carboxyl-terminal hydrolase 5 (USP5, Homo sapiens, UniProt P45974)","enzyme activity, inhibitor",,17 µM,96%
O=C(O)c1ccccc1/C=N/Nc1nc(-c2ccccc2Cl)cs1,"Casein kinase I isoform gamma-1 (CSNK1G1, Homo sapiens, UniProt Q9HCP0)",kinase activity,,1 µM,6.83%
CS(C)(=O)=Nc1ccc(-c2ccc(-c3nc4cc(O[C@@H]5CO[C@H]6[C@@H]5OC[C@H]6O)[nH]c4cc3F)cc2)cc1,"Cyclin-dependent kinase 5, with p35 (CDK5, Homo sapiens, UniProt Q00535)","enzyme activity, inhibitor",,10 µM,4%
C/C(=N\OCCCN1CCCCC1)c1ccc(C(F)(F)F)cc1,"Endothelin-1 receptor (EDNRA, Homo sapiens, UniProt P25101)","antagonist, IP-One",,10 µM,-3.82%
C(=N\C12CC3CC(CC(C3)C1)C2)/c1ccccc1,"Procathepsin L (CTSL, Homo sapiens, UniProt P07711)","enzyme activity, inhibitor",,"100 µM, with preincubation",1%
NCC1CCN(Cc2cccc(F)c2)CC1,BCHE,"enzyme activity, inhibitor, Ellman",,20 µM,55.1%
CN(/N=C/c1ccccc1C(=O)O)c1nc(-c2ccccc2Cl)cs1,"Misshapen-like kinase 1 (MINK1, Homo sapiens, UniProt Q8N4C8)","enzyme activity, inhibitor",,1 µM,-5.99%
C=CC(=O)Nc1cc(-c2nn(C3CCC(N4CCN(C(C)=O)CC4)CC3)c3ncnc(N)c23)ccc1Oc1ccccc1 (stereo not shown),"Mitogen-activated protein kinase kinase kinase 1 (MAP3K1, Homo sapiens, UniProt Q13233)","inhibitor, KiNativ profiling",biochemical,2 µM,-1.1%
Cc1cc(-c2ccc3ccccc3c2)nnc1NCCN1CCN(C)CC1,"ATP-binding cassette sub-family C member 2 (ABCC2, Homo sapiens, UniProt Q92887)",transport,,concentration not given,negative
Cc1ccc2c(n1)c(-c1cccc(S(C)(=O)=O)c1)c(C)n2C/C(F)=C/CN,"Glutamate receptor ionotropic, NMDA 1 (Grin1, Rattus norvegicus, UniProt P35439)",radioligand binding,,"10 µM, rat",-11%
NC1CCCC1,BCHE,"enzyme activity, inhibitor, Ellman",,20 µM,30.6%
O=C(CN1CN(c2ccccc2)C2(CCN(C(=O)c3cnc4[nH]ncc4c3)CC2)C1=O)NCC(F)(F)F,"Mitogen-activated protein kinase kinase kinase 13 (MAP3K13, Homo sapiens, UniProt O43283)",inhibitor,,concentration not given,< 50%
N[C@H](C(=O)N1CCCC1)C1CCN(c2nccc3c(-c4ncc(Cl)cc4Cl)cccc23)CC1,AMPA receptor,"binding, radioligand binding",,10 µM,-6%

# For quick reference, copied from above:
SMILES,target,test,system,setting,inhibition
CN[C@@H]1[C@H](O)[C@H](NC)[C@H]2O[C@]3(O)[C@H](O[C@@H]2[C@H]1O)O[C@H](C)C[C@H]3NC(=O)Cc1cc(Cl)ccn1,"D(4) dopamine receptor (DRD4, Homo sapiens, UniProt P21917, del265-296)","ligand displacement, radioligand",,10 µM,3%
CC(=O)NC[C@@H]1[C@@H](O)C[C@H]2[C@H](O)C[C@@H](CO)N12,Spodoptera litura β-N-acetylglucosaminidase,,crude enzyme,"1.71 µM, run 2, added: p-nitrophenyl GlcNAc",81.4%
